# Measured values pooled from the literature.
# Numbered parts are unrelated; each lists some results of a single study.
# UniProt P36507, sequence (whole entry, looked up): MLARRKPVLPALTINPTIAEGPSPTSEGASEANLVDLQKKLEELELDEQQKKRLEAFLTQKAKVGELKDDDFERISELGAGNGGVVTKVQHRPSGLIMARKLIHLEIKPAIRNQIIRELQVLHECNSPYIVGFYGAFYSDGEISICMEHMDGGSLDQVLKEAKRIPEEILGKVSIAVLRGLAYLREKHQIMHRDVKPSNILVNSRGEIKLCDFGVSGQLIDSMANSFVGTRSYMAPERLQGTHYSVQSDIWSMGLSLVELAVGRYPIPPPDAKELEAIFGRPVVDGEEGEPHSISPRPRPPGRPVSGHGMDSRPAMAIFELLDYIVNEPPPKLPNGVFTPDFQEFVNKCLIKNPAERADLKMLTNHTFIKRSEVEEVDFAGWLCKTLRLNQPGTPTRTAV
# UniProt P36896, sequence (whole entry, looked up): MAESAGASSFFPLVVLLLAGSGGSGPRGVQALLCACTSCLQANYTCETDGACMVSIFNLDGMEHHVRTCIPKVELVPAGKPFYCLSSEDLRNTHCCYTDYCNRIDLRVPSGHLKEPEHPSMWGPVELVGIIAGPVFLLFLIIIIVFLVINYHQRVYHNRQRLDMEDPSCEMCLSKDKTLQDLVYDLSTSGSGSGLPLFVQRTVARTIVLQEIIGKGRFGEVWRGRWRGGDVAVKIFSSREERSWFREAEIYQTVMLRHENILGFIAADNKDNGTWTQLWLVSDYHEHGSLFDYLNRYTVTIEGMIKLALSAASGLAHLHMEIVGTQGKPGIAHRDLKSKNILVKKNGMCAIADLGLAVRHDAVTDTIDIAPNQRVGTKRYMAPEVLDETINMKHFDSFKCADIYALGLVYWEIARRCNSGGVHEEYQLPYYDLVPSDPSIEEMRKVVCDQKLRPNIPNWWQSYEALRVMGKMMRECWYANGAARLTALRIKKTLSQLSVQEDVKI
# UniProt P29322, sequence (whole entry, looked up): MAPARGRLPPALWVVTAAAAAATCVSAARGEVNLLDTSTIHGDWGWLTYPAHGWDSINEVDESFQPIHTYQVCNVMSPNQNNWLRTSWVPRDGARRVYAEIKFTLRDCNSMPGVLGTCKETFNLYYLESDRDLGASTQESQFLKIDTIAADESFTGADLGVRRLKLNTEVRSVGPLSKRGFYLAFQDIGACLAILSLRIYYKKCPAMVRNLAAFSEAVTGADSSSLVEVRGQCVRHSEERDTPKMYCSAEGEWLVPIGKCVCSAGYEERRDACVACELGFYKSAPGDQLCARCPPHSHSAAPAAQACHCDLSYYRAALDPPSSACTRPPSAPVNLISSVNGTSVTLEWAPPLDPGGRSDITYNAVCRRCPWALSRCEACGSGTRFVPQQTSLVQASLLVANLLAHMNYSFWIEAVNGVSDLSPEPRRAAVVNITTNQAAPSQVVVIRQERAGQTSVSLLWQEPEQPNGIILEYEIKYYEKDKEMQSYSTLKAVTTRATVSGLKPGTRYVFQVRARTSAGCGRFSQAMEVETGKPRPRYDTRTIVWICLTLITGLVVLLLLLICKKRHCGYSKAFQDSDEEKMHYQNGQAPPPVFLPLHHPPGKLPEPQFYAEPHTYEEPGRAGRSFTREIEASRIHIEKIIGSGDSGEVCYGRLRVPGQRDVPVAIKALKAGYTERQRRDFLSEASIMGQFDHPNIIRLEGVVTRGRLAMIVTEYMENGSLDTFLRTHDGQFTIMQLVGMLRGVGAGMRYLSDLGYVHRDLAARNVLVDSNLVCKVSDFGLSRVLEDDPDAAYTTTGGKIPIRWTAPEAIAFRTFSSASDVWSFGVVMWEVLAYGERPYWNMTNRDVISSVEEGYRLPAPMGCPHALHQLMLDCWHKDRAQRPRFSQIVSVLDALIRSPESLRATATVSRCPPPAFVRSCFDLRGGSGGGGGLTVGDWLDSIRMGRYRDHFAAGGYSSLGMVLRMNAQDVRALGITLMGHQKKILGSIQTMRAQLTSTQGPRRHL
# UniProt Q9NRH2, sequence (whole entry, looked up): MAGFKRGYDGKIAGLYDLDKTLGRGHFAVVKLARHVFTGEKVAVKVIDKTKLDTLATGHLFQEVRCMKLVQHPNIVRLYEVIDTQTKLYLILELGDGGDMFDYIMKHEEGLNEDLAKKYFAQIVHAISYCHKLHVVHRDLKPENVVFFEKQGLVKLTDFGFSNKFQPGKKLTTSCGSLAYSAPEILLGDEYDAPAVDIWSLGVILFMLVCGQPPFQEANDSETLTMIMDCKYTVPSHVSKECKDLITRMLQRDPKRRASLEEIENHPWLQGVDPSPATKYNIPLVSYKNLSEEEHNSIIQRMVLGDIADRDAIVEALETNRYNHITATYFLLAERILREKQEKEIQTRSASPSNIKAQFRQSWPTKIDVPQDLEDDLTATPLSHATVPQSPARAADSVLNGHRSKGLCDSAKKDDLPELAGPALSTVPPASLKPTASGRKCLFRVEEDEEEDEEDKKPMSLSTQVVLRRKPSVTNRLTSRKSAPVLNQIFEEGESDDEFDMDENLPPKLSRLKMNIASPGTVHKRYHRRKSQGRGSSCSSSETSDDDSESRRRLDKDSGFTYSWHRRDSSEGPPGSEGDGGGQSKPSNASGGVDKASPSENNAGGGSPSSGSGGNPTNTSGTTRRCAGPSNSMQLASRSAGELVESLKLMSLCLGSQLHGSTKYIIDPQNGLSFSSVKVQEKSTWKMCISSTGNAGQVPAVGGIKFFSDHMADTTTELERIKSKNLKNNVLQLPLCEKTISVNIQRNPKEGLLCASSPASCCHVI
# UniProt Q02763, sequence (whole entry, looked up): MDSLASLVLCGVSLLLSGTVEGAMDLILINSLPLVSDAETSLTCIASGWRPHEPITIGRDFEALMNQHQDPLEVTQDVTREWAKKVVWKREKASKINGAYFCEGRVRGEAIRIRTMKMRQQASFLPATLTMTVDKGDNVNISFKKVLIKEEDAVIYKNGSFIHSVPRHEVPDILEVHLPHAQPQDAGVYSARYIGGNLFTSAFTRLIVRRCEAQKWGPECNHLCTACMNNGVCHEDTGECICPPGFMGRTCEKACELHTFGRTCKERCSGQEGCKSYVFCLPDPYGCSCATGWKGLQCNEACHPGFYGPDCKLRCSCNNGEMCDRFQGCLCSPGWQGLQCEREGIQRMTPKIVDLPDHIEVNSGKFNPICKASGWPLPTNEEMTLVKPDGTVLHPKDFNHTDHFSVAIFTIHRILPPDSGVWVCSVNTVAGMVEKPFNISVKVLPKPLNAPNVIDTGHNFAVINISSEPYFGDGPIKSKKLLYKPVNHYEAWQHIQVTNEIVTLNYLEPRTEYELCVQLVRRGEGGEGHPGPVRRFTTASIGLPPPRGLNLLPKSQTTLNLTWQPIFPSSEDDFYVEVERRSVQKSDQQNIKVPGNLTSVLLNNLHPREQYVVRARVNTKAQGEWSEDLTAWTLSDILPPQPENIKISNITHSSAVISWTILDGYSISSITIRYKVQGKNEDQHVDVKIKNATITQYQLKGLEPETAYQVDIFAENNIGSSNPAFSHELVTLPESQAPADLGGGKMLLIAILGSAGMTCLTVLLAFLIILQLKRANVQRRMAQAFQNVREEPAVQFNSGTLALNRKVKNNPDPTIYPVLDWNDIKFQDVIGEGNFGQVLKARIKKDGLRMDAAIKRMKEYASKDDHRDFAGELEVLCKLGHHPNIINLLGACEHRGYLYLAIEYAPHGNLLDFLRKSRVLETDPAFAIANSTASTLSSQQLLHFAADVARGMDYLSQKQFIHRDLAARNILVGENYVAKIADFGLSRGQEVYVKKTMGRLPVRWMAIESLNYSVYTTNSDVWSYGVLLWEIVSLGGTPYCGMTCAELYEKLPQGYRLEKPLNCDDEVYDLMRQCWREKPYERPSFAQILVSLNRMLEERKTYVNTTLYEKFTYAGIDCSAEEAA
# UniProt P11362, sequence (whole entry, looked up): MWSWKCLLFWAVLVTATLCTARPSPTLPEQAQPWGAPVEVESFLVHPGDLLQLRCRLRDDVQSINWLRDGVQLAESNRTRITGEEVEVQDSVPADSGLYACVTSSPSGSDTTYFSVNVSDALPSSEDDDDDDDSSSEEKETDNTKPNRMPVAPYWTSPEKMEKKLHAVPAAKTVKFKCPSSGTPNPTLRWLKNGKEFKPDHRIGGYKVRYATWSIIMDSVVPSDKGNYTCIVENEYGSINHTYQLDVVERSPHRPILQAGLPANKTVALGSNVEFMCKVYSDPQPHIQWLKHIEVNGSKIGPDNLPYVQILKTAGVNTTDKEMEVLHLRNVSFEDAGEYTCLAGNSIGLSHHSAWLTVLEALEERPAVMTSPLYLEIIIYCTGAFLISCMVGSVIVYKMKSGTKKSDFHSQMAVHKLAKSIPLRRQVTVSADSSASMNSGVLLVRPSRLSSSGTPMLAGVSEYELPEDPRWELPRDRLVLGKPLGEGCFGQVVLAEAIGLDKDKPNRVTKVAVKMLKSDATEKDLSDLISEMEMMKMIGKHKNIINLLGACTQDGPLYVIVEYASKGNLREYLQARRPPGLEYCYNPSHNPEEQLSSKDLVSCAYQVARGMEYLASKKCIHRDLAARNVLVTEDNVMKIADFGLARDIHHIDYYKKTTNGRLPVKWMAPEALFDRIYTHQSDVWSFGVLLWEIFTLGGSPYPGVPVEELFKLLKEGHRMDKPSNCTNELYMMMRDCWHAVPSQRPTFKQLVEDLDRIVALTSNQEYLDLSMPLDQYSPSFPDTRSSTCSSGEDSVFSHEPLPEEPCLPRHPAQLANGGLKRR
# UniProt Q9HC98, sequence (whole entry, looked up): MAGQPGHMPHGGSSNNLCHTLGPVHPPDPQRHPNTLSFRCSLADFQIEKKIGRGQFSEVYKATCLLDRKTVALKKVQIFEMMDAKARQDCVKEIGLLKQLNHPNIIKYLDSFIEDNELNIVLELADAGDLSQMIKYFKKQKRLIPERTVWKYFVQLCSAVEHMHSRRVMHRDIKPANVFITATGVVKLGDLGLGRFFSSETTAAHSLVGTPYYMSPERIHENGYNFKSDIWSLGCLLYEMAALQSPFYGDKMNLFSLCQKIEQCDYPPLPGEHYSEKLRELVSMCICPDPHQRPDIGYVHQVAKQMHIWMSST

# Block 1
# Structure (SMILES): O=C1Nc2ccc(Br)cc2/C1=C/c1cc2c([nH]1)CCCC2
# Effect on: enzyme activity
# Action: inhibitor
# Tested at: 0.5 µM
# Baseline: control
target,remaining activity
"Tyrosine-protein kinase Mer (MERTK, Homo sapiens, UniProt Q12866)",81.2%
"Mitogen-activated protein kinase kinase kinase 5 (MAP3K5, Homo sapiens, UniProt Q99683)",101%
"Fibroblast growth factor receptor 1 (FGFR1, Homo sapiens, UniProt P11362)",76.7%
"Activin receptor type-1B (ACVR1B, Homo sapiens, UniProt P36896)",99%
"Rhodopsin kinase GRK7 (GRK7, Homo sapiens, UniProt Q8WTQ7)",85.2%
"Serine/threonine-protein kinase Nek6 (NEK6, Homo sapiens, UniProt Q9HC98)",103%
"Tyrosine-protein kinase Lck (LCK, Homo sapiens, UniProt P06239)",84.5%
"Serine/threonine-protein kinase TBK1 (TBK1, Homo sapiens, UniProt Q9UHD2)",66.9%
"Casein kinase I isoform gamma-3 (CSNK1G3, Homo sapiens, UniProt Q9Y6M4)",103%
"Dual specificity mitogen-activated protein kinase kinase 2 (MAP2K2, Homo sapiens, UniProt P36507)",92.1%
"Macrophage-stimulating protein receptor (MST1R, Homo sapiens, UniProt Q04912)",88.3%
"Fibroblast growth factor receptor 3 (FGFR3, Homo sapiens, UniProt P22607)",55.8%
"Ribosomal protein S6 kinase alpha-2 (RPS6KA2, Homo sapiens, UniProt Q15349)",72%
"Angiopoietin-1 receptor (TEK, Homo sapiens, UniProt Q02763)",98.2%
"Tyrosine-protein kinase ABL2 (ABL2, Homo sapiens, UniProt P42684)",82.6%

# Block 2
# Host: human
# Medium: microsomes or S9
# Tested at: 2 µM
# Time: 0.5 h
Compound,remaining compound
O=C1NN=C(c2ccc(F)cc2)Cn2c1cc1ccccc12,10.8%
CNC(=O)c1cc2c(F)c(O)ccc2n1-c1cc(F)c(O)c(F)c1,> 99%
Clc1cc2nc(-c3cn[nH]c3)[nH]c2cc1Cl,40%
COc1ccccc1-c1nc(CN(C)S(=O)(=O)c2c(C)cc(C)cc2C)c(C)o1,0.0125%
COC(=O)c1c(C)nc2c(c1OS(=O)(=O)C(F)(F)F)CCN2C,22.9%

# Block 3
# Organism: Sarcocystis neurona
# Effect on: parasite growth
# Tested at: concentration not given
Compound,inhibition [%]
C[N+]1(C)CCCC(OC(=O)C(O)(c2ccccc2)c2ccccc2)C1.[Br-] (stereo not drawn),-14.4
CC[C@@H]1C(=O)OC[C@@H]1Cc1cncn1C.Cl,-15.4
CC[N+](C)(CC)CCOC(=O)C(O)(c1ccccc1)C1CCCCC1.[Br-] (stereo not drawn),-5.2
Nc1nc(=O)[nH]cc1F,-10.4
CC(CCCCC(=O)Nc1ccc(C(F)(F)F)cc1)NCCc1cnc[nH]1 (stereo not drawn),-6.6
C[C@H](N[C@@H](CCc1ccccc1)C(=O)O)C(=O)N1CCC[C@H]1C(=O)O,-0.246

# Block 4
# SMILES: O=C(O)[C@@H]1[C@@H](Cn2nnc3ccccc3c2=O)CC[C@H]1C(=O)c1ccc(OCCC2CCOCC2)cc1
# Effect on: cell-free assay
# Method: competition with immobilised ligand
# Tested at: 1 µM
target,remaining binding
"Serine/threonine-protein kinase PLK4 (PLK4, Homo sapiens, UniProt O00444)",83%
"Serine/threonine-protein kinase 26 (STK26, Homo sapiens, UniProt Q9P289)",100%
"Epidermal growth factor receptor (EGFR, Homo sapiens, UniProt P00533, del746-750)",95%
"Ephrin type-A receptor 8 (EPHA8, Homo sapiens, UniProt P29322)",99%
"SNF-related serine/threonine-protein kinase (SNRK, Homo sapiens, UniProt Q9NRH2)",100%
"Cyclin-dependent kinase 18 (CDK18, Homo sapiens, UniProt Q07002)",90%
"Ribosomal protein S6 kinase alpha-6, N-terminal kinase domain (RPS6KA6, Homo sapiens, UniProt Q9UK32)",100%

# Excerpt of the above (block 2):
Compound,remaining compound
O=C1NN=C(c2ccc(F)cc2)Cn2c1cc1ccccc12,10.8%
COC(=O)c1c(C)nc2c(c1OS(=O)(=O)C(F)(F)F)CCN2C,22.9%
Clc1cc2nc(-c3cn[nH]c3)[nH]c2cc1Cl,40%
COc1ccccc1-c1nc(CN(C)S(=O)(=O)c2c(C)cc(C)cc2C)c(C)o1,0.0125%
CNC(=O)c1cc2c(F)c(O)ccc2n1-c1cc(F)c(O)c(F)c1,> 99%
